Experimental data collected from several papers.
Numbered parts are unrelated; each lists some results of a single study.

Study 1
Cell line: HaCaT
Tested at: 100 µM
Time: 60 h
Quantity: viability
COc1cc2c(Nc3ccc(Br)cc3F)ncnc2cc1OCC1CCN(C)CC1: 15.7%
CCOC(N)=O: 150%
CC(=O)OCC(=O)[C@@]1(O)CC[C@H]2[C@@H]3CCC4=CC(=O)C=C[C@]4(C)[C@H]3[C@@H](O)C[C@@]21C: 165%
CCC[C@H](NC(=O)[C@@H]1[C@H]2CCC[C@H]2CN1C(=O)[C@@H](NC(=O)[C@@H](NC(=O)c1cnccn1)C1CCCCC1)C(C)(C)C)C(=O)C(=O)NC1CC1: 18.4%
Cn1c(=O)c2c(ncn2CC(O)CO)n(C)c1=O (centres unmarked): 116%
CC(C(=O)O)c1ccc2c(c1)CC(=O)c1ccccc1S2 (centres unmarked): 145%
CN1[C@@H]2CCC[C@H]1C[C@@H](NC(=O)c1nn(C)c3ccccc13)C2: 143%
Nc1ccc(S(=O)(=O)Nc2nccs2)cc1: 88.4%

Study 2
Species: mouse
Matrix: microsomes or S9
Tested at: 2 µM
Time: 0.5 h
Quantity: remaining compound
Cc1cccc(N2CCN(S(=O)(=O)c3ccc(-c4ccc(=O)[nH]n4)s3)CC2C)c1 (centres unmarked): 77.3%
CCCc1cc(-c2nc(Cc3nn4c(C(C)C)nnc4s3)cs2)ccn1: > 99%
COCCCNC(=O)C1CCCN(S(=O)(=O)c2ccccc2)CCC(=O)NCC1 (centres unmarked): 76.6%
O=C(c1cc2cc(Br)c3ncccc3c2s1)N1CCN(c2ccccc2)CC1: 78.5%
N#Cc1nc(-c2ccc(Br)o2)oc1N1CCC(C(=O)Nc2cnccc2O)CC1: 73.3%

Study 3
Method: PRP chromatography estimate
Matrix: 1,9-decadiene/PBS
pH: 7.4
Quantity: logD
CCC[C@@H]1NC(=O)CSC[C@@H](C(=O)OCC)N(C)C(=O)[C@H](CC(C)C)NC(=O)[C@H](C)N(C)C(=O)[C@H](CC(C)C)NC(=O)[C@H](C)N(C)C(=O)[C@H]2CCCN2C(=O)[C@@H](CC(C)C)NC(=O)CN(C)C1=O: 0.253
CC(C)C[C@@H]1NC(=O)[C@H](Cc2cscn2)NC(=O)[C@H](CCC(=O)N2CCCC2)NC(=O)[C@H](C)NC(=O)[C@@H](Cc2cscn2)NC(=O)[C@H](CC(C)C)NC(=O)[C@@H](CC(C)C)NC1=O: -2.38
CC(C)C[C@@H]1NC(=O)[C@H](Cc2cscn2)NC(=O)[C@H](CCC(=O)N2CCCC2)NC(=O)[C@H](CC(C)C)NC(=O)[C@@H](Cc2cscn2)NC(=O)[C@H](CC(C)C)NC(=O)[C@@H](CC(C)C)NC1=O: -0.904
CC(C)C[C@@H]1NC(=O)[C@H](CC(C)C)NC(=O)[C@@H](CC(C)C)NC(=O)[C@@H](C)NC(=O)[C@H](C(C)C)NC(=O)[C@H](C)NC(=O)[C@H](C)NC1=O: -2.68
CC(C)C[C@@H]1NC(=O)[C@H](CC(C)C)NC(=O)[C@@H](CC(C)C)NC(=O)[C@H](CC(C)C)NC(=O)[C@@H](CCC(=O)N2CCCC2)NC(=O)[C@H](Cc2cscn2)NC(=O)[C@H](C)NC1=O: -1.45
CC(C)C[C@@H]1NC(=O)[C@H](C(C)C)NC(=O)[C@@H](CC(C)C)NC(=O)[C@@H](CC(C)C)NC(=O)[C@H](C)NC(=O)[C@H](CC(C)C)NC(=O)[C@@H](CC(C)C)NC1=O: 1.31
CC(C)C[C@@H]1NC(=O)[C@H](C)NC(=O)[C@H](Cc2cscn2)NC(=O)[C@H](CCC(=O)N2CCCC2)NC(=O)[C@H](CC(C)C)NC(=O)[C@H](CC(C)C)NC(=O)[C@@H](CC(C)C)NC1=O: -1.4

Study 4
SMILES: O=C(O)[C@@H]1[C@@H](Cn2nnc3ccccc3c2=O)CC[C@H]1C(=O)c1ccc(OCCC2CCOCC2)cc1
Method: CellTiter-Glo
Tested at: 1 µM
Time: 4 days
Baseline: DMSO
Quantity: viability
sample E normal colon organoid: 123%
sample G normal colon organoid: 104%
sample F normal colon organoid: 107%

A few entries again (study 1):
Nc1ccc(S(=O)(=O)Nc2nccs2)cc1: 88.4%
CCOC(N)=O: 150%
CC(C(=O)O)c1ccc2c(c1)CC(=O)c1ccccc1S2 (centres unmarked): 145%
